Assay results collected from several papers.
Protocols differ between the studies behind these lines.
Technique: steady-state kinetics
B1: FMO3 N61S (Homo sapiens, UniProt P31513); chain GKKVAIIGAGVSGLASIRSCLEEGLEPTCFEKSNDIGGLWKFSDHAEEGRASIYKSVFSSSSKEMMCFPDFPFPDDFPNFMHNSKIQEYIIAFAKEKNLLKYIQFKTFVSSVNKHPDFATTGQWDVTTERDGKKESAVFDAVMVCSGHHVYPNLPKESFPGLNHFKGKCFHSRDYKEPGVFNGKRVLVVGLGNSGCDIATELSRTAEQVMISSRSGSWVMSRVWDNGYPWDMLLVTRFGTFLKNNLPTAISDWLYVKQMNARFKHENYGLMPLNGVLRKEPVFNDELPASILCGIVSVKPNVKEFTETSAIFEDGTIFEGIDCVIFATGYSFAYPFLDESIIKSRNNEIILFKGVFPPLLEKSTIAVIGFVQSLGAAIPTVDLQSRWAAQVIKGTCTLPSMEDMMNDINEKMEKKRKWFGKSETIQTDYIVYMDELSSFIGAKPNIPWLFLTDPKLAMEVYFGPCSPYQFRLVGPGQWPGARNAILTQWDRSLKPMQTRVVGRLQKPCFFFHWLKLFAIPILLIAVFLVLT
B2: CMBL (Homo sapiens, UniProt Q96DG6); chain MANEAYPCPCDIGHRLEYGGLGREVQVEHIKAYVTKSPVDAGKAVIVIQDIFGWQLPNTRYIADMISGNGYTTIVPDFFVGQEPWDPSGDWSIFPEWLKTRNAQKIDREISAILKYLKQQCHAQKIGIVGFCWGGTAVHHLMMKYSEFRAGVSVYGIVKDSEDIYNLKNPTLFIFAENDVVIPLKDVSLLTQKLKEHCKVEYQIKTFSGQTHGFVHRKREDCSPADKPYIDEARRNLIEWLNKYM
B3: UGT1A9 (Homo sapiens, UniProt O60656); chain GKLLVVPMDGSHWFTMRSVVEKLILRGHEVVVVMPEVSWQLGRSLNCTVKTYSTSYTLEDLDREFKAFAHAQWKAQVRSIYSLLMGSYNDIFDLFFSNCRSLFKDKKLVEYLKESSFDAVFLDPFDNCGLIVAKYFSLPSVVFARGILCHYLEEGAQCPAPLSYVPRILLGFSDAMTFKERVRNHIMHLEEHLLCHRFFKNALEIASEILQTPVTEYDLYSHTSIWLLRTDFVLDYPKPVMPNMIFIGGINCHQGKPLPMEFEAYINASGEHGIVVFSLGSMVSEIPEKKAMAIADALGKIPQTVLWRYTGTRPSNLANNTILVKWLPQNDLLGHPMTRAFITHAGSHGVYESICNGVPMVMMPLFGDQMDNAKRMETKGAGVTLNVLEMTSEDLENALKAVINDKSYKENIMRLSSLHKDRPVEPLDLAVFWVEFVMRHKGAPHLRPAAHDLTWYQYHSLDVIGFLLAVVLTVAFITFKCCAYGYRKCLGKKGRVKKAHKSKTH
B4: protein (UniProt Q52060); chain MNQKLKVAIIGSGNIGTDLMIKVLRNAKYLEMGAMVGIDAASDGLARAQRMGVTTTYAGVEGLIKLPEFADIDFVFDATSASAHVQNEALLRQAKPGIRLIDLTPAAIGPYCVPVVNLEEHLGKLNVNMVTCGGQATIPMVAAVSRVAKVHYAEIVASISSKSAGPGTRANIDEFTETTSKAIEVIGGAAKGKAIIIMNPAEPPLIMRDTVYVLSAAADQAAVAASVAEMVQAVQAYVPGYRLKQQVQFDVIPESAPLNIPGLGRFSGLKTSVFLEVEGAAHYLPAYAGNLDIMTSAALATAERMAQSMLNA
B5: Gcs (Leishmania donovani, UniProt Q67BG3); chain MGLLTTGGAPIQWGTDANRKAIPHVREHGIQQFLNVFKNKKDLHGMPFLWGEELEHQLIQIHDNTVTLSTESAMVMNKLRARPDNCAVWNPEYGSFMIESTPDHPYSLSVESLDSVQDNIERRYDMLNKEAPPGVVGTTFVTFPLMGQGNFVHCSDKSSPYSQSLFVPDACINQTHPRFANLTANIRLRRGQKVCVLVPLYMDSRTMQDTVDPQLNIDLTPHNKDIFYSMRENGRNMTDELYAETDASAALLVPSSSLDPREDYPVTETLKQLFTPATLYYYAQYFTGQRREHMQERYNACNCPVTLVSHPCIYMDCMAFGMGNSALQVTMQLDNIHEARHVYDQLAILCPAFLALSSATPFQKGLLCDTDVRWLTIAGAVDDRRVEEVPRILKSRYDSISVFISDRTENLEEFNDSQIAINRSYCELLKDSGVDVRLANHIAHLFIRDPLVMYDKMIDIDDTTHTEHFDNIQSTNWQTVRFKPPPIGNDIGWRVEFRVMDIQPTPFENAAFAVFIPLLTKAIITYKPCFYTKISIVDENMGRAHRINPCGEQYIMRKDIFADKCTASDEETARMSIDEIFNGKEGGFYGLIPLVCRYLDDEGKRSPLVNSYLKFLSMRASGRIPTPAQYMRKFVTTHPDYKHDSRLTDSIARDLVQRMHGLAANQIHDDDYLPMSFFTADTVESTK
B6: HCT R356D (Coleus scutellarioides, UniProt E8ZAP2); chain MKIHVRDSTLVRPSAATPAVSLWNSNVDLVVPNFHTPSVYFYRPSGADNFFDTAVMKAALGRALVSFYPMAGRLKRDEDGRVEIDCNAEGVLFVEAESDGTVDDYGDFAPSLELRRLIPAVDYSQGISAYPLLVLQVTFFKCGGVSLGVGMQHHAADGFSGLHFINTWSDMARGLDITLPPFIDRTLLSARDPPQPQFKHVEYQPPPAMKTYEPAETVVSIFKLTKDQLTTLKAKSKEDGNTTTYSSYEMLSGHVWRCTCLARGLPEEQETKLYIATDGRSRLQPQLPPGYFGNVIFTATPLAVAGDLGSKPVWYAASKIHDALARMDNDYLRSALDFLELQPDLKALVRGAHTFDCPNLGITSWVRLPIHDADFGWGRPIFMGPGGIAYEGLSFVLPSPTNDGSLSVAISLQAEHMKLFEKLLYQI
B7: enzyme (Arabidopsis thaliana, UniProt Q949Q0); chain ISGPPDIINTNRDQRKVVRIAWEKLVRWSRSLRAKAKTDVLERTRKVVVLGGGSFGTAMAAHVARRKEGLEVNMLVRDSFVCQSINENHHNCKYFPEHKLPENVIATTDAKAALLDADYCLHAVPVQFSSSFLEGIADYVDPGLPFISLSKGLELNTLRMMSQIIPIALKNPRQPFVALSGPSFALELMNNLPTAMVVASKDKKLANAVQQLLASSYLRINTSSDVTGVEIAGALKNVLAIAAGIVDGMNLGNNSMAALVSQGCSEIRWLATKMGAKPTTITGLSGTGDIMLTCFVNLSRNRTVGVRLGSGETLDDILTSMNQVAEGVATAGAVIALAQKYNVKLPVLTAVAKIIDNELTPTKAVLELMNLPQIEEV
B8: enzyme S124A (Arabidopsis thaliana, UniProt O82390); chain MNARALLCSSNIHSLYTSNRPPEKTSSSRSLRNLKPSPKSLRVWIYPRNRSSVFRVLVRSSDKSESSNSYYVEGDKVSGNNDVVSDSPSSIVLPWWEEFPKRWVIVLLCFSAFLLCNMDRVNMAIAILPMSAEYGWNPATVGLIQSSFFWGYLLTQIAGGIWADTVGGKRVLGFGVIWWSIATILTPVAAKLGLPYLLVVRAFMGVGEGVAMPAMNNILSKWVPVQERSRSLALVYSGMYLGSVTGLAFSPFLIHQFGWPSVFYSFGSLGTVWLTLWLTKAESSPLEDPTLLPEERKLIADNCASKEPVKSIPWRLILSKPPVWALISCHFCHNWGTFILLTWMPTYYHQVLKFNLMESGLLSVFPWMTMAISANAGGWIADTLVSRGFSVTNVRKIMQTIGFLGPAFFLTQLKHIDSPTMAVLCMACSQGTDAFSQSGLYSNHQDIAPRYSGVLLGLSNTAGVLAGVLGTAATGHILQHGSWDDVFTISVGLYLVGTVIWNLFSTGEKIID
B9: enzyme (Schizosaccharomyces pombe, UniProt Q9Y7P0); chain MFTGLVEAIGVVKDVQGTIDNGFAMKIEAPQILDDCHTGDSIAVNGTCLTVTDFDRYHFTVGIAPESLRLTNLGQCKAGDPVNLERAVLSSTRMGGHFVQGHVDTVAEIVEKKQDGEAIDFTFRPRDPFVLKYIVYKGYIALDGTSLTITHVDDSTFSIMMISYTQSKVIMAKKNVGDLVNVEVDQIGKYTEKLVEAHIADWIKKTQA
Chain of UniProt Q04JB0 (whole entry, looked up): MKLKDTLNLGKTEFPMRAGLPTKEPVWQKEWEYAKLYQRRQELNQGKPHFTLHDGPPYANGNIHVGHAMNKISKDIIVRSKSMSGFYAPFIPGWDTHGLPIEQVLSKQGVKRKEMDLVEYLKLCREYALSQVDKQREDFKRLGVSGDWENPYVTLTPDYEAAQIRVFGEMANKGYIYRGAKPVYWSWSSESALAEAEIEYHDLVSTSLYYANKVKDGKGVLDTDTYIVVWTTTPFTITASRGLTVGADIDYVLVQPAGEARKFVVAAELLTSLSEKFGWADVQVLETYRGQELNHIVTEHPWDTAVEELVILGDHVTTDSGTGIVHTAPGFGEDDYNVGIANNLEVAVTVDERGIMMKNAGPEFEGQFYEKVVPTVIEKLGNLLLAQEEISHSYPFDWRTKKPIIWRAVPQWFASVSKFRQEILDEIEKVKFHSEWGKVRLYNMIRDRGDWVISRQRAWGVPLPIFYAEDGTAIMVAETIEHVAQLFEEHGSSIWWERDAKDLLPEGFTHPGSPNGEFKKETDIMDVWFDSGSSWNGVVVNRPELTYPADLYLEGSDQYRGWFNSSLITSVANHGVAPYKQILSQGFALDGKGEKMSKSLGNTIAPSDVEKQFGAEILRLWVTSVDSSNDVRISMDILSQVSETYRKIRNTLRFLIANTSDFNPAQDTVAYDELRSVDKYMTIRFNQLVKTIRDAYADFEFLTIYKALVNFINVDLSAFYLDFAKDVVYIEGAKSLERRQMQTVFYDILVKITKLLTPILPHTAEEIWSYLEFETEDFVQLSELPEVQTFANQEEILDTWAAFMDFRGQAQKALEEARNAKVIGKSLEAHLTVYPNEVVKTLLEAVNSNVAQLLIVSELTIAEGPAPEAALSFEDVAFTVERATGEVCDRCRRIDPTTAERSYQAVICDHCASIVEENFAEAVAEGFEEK
Chain of UniProt P05177 (whole entry, looked up): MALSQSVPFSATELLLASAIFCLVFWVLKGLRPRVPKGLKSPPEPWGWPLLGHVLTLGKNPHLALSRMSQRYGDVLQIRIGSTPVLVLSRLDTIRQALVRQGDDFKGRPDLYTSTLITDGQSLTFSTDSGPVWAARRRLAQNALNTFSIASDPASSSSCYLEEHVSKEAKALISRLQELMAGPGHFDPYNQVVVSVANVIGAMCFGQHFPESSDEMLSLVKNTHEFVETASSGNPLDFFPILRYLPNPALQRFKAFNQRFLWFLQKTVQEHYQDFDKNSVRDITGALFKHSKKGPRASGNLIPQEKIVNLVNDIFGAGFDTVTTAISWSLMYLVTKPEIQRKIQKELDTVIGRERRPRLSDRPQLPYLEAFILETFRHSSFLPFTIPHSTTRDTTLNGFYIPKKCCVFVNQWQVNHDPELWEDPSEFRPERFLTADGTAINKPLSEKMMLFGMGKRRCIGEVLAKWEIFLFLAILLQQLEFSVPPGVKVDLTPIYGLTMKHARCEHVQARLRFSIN
Chain of UniProt I0DFJ0 (whole entry, looked up): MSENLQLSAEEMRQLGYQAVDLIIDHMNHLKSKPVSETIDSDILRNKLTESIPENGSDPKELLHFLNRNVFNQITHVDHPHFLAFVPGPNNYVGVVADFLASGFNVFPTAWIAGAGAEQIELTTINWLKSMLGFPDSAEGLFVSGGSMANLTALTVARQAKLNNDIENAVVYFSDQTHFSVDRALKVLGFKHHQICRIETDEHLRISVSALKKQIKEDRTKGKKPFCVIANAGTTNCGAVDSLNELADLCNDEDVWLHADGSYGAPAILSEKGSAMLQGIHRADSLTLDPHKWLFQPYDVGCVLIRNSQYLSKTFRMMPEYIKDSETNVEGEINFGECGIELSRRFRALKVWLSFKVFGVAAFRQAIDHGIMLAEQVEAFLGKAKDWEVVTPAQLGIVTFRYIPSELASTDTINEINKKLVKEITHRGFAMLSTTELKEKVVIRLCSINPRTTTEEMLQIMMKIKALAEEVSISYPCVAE
Chain of UniProt Q6ZQB6 (whole entry, looked up): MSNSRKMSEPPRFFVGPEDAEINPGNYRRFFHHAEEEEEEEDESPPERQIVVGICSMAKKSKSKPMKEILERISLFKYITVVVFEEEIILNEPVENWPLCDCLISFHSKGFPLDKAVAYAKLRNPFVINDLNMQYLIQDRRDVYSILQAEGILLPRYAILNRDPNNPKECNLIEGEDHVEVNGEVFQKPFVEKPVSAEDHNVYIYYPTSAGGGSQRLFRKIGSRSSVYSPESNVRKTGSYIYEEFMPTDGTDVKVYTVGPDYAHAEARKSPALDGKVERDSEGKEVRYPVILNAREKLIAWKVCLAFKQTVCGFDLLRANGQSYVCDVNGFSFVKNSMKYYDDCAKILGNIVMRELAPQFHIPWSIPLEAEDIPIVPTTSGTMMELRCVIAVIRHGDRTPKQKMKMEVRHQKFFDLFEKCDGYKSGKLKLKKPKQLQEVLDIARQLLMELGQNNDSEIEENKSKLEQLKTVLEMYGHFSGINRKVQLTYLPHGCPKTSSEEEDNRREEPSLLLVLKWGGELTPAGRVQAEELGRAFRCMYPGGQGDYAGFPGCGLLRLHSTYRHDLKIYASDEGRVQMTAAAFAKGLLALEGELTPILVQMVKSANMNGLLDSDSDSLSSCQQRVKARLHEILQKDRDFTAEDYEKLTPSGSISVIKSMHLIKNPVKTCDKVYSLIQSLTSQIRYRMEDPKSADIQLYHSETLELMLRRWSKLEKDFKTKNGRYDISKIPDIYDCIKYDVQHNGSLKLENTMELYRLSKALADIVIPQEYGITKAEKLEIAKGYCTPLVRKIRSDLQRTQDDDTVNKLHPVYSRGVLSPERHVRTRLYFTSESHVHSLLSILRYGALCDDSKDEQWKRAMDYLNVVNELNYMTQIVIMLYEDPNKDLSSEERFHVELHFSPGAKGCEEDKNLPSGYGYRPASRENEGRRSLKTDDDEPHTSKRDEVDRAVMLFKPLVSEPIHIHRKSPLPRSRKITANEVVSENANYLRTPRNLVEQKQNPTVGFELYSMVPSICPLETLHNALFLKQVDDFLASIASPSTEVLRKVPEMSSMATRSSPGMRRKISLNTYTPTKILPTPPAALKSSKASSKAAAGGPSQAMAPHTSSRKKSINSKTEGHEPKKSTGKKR

B1 (FMO3 N61S)  Vmax (CN1CCC[C@H]1c1cccnc1; HEK293 microsomes; 37 °C, not purified, added: NADPH regenerating system): 1.82e-05 µmol/min/mg
B2 (CMBL)  Vmax (Cc1oc(=O)oc1COC(=O)C1=C([C@H]2CCCO2)S[C@@H]2[C@@H]([C@@H](C)O)C(=O)N12; lysate; pH 7.4, 37 °C, not purified): 0.0164 µmol/min/mg
B3 (UGT1A9)  Vmax (Cc1cc(=O)oc2cc(O)ccc12; pH 7.4, 37 °C): 0.00365 µmol/min/mg
B4 (protein)  Vmax (CC=O; cell extract; not purified, added: CoA): 1.01 µmol/min/mg
B5 (Gcs)  Vmax (N[C@@H](CS)C(=O)O; apparent, added: ATP, L-glutamate, Mg2+): 75.2 µM/min/mg
B6 (HCT R356D)  Vmax (NCCc1ccc(O)c(O)c1; pH 8, pseudo-first-order, added: p-coumaroyl CoA): 1.83 µmol/min/mg
CYP1A2 (Homo sapiens, UniProt P05177)  Vmax (COc1cc2c(cc1CC=C(C)C)C(=O)C[C@@H](c1ccc(O)cc1)O2; pH 7.4, 37 °C): 0.000122 µmol/min/mg
B7 (enzyme)  Vmax (O=C(CO)COP(=O)(O)O; pH 7.2, 30 °C, apparent): 41.1 µmol/min/mg
ileS (Streptococcus pneumoniae, UniProt Q04JB0)  Vmax (CC(C)C[C@H](N)C(=O)O; pH 7.2, 37 °C, added: ATP 2 mM): 0.0015 µM/min/mg
B8 (enzyme S124A)  Vmax (O=P(O)(O)O; pH 6.5, 25 °C, apparent, not purified): 0.000848 µmol/min/mg
B9 (enzyme)  Vmax (Cc1nc2c(=O)[nH]c(=O)nc-2n(C[C@H](O)[C@H](O)[C@H](O)CO)c1C; pH 7.2, 37 °C, apparent): 0.158 µmol/min/mg
aromatic amino acid decarboxylase (Bacillus atrophaeus, UniProt I0DFJ0)  Vmax (N[C@@H](Cc1c[nH]c2c(Cl)cccc12)C(=O)O; pH 7, 37 °C, not purified, added: PLP 40 µM): 0.3 µmol/min/mg
oxalate oxidase (Gelatoporia subvermispora, UniProt Q5ZH56)  Vmax (O=C(O)C(=O)O; pH 4, added: oxalate 0.01-90 mM): 18.2 µmol/min/mg
speG (Vibrio cholerae, UniProt Q9KL03)  Vmax (NCCCCNCCCN; pH 9, 37 °C): 76.2 µmol/min/mg
Ppip5k2 (Mus musculus, UniProt Q6ZQB6)  Vmax (O=P(O)(O)O[C@@H]1[C@@H](OP(=O)(O)O)[C@H](OP(=O)(O)OP(=O)(O)O)[C@@H](OP(=O)(O)O)[C@H](OP(=O)(O)OP(=O)(O)O)[C@@H]1OP(=O)(O)O; pH 5, 37 °C): 0.0442 µmol/min/mg
enzyme (Vitis vinifera, UniProt F6H697)  Vmax (O=C(O)Cc1cccc2ccccc12; pH 8.6, 25 °C): 0.0752 µmol/min/mg

Excerpt of the above:
Ppip5k2 (Mus musculus, UniProt Q6ZQB6)  Vmax (O=P(O)(O)O[C@@H]1[C@@H](OP(=O)(O)O)[C@H](OP(=O)(O)OP(=O)(O)O)[C@@H](OP(=O)(O)O)[C@H](OP(=O)(O)OP(=O)(O)O)[C@@H]1OP(=O)(O)O; pH 5, 37 °C): 0.0442 µmol/min/mg
B2 (CMBL)  Vmax (Cc1oc(=O)oc1COC(=O)C1=C([C@H]2CCCO2)S[C@@H]2[C@@H]([C@@H](C)O)C(=O)N12; lysate; pH 7.4, 37 °C, not purified): 0.0164 µmol/min/mg
